Values quoted from earlier work as cited in several papers.
Each line is one published result; not all experiments were run side by side. ± marks the error that the study gave. ≈ marks a conversion by molar mass, not a printed value.

CC[C@H](C)[C@@H]1NC(=O)[C@H](CCC(N)=O)NC(=O)[C@H](CCC(=O)O)NC(=O)[C@H](CCC(=O)O)NC(=O)[C@H](CCCCN)NC(=O)[C@@H]2CCCN2C(=O)[C@H](CC(C)C)NC(=O)[C@@H](NC(=O)[C@@H](N)CO)CSSC[C@@H](C(=O)N[C@@H](CCCNC(=N)N)C(=O)N[C@@H](CCCNC(=N)N)C(=O)N[C@@H](CCCCN)C(=O)N[C@@H](CCCCN)C(=O)O)NC(=O)[C@H](CCCCN)NC(=O)[C@H](CCCNC(=N)N)NC(=O)CNC(=O)[C@H](CCCNC(=N)N)NC(=O)[C@H]([C@@H](C)O)NC(=O)[C@H](CO)NC(=O)[C@H](CCCCN)NC(=O)CNC1=O — MBC (Escherichia coli; K-12 MG1655; pH 7.4): 16 µM (≈ 41.4 µg/mL)
CC/C(=C\c1ccc(O)cc1)[N+](=O)[O-] — IC50 (Leishmania donovani; parasite growth; amastigote): 61.6 ± 8.02 nM
CCCCCCCCCCCCCCCCSSCCOP(=O)(O)CO[C@H](C)Cn1cnc2c(N)ncnc21 — therapeutic index (HIV-1): 28000
C[C@@](CCc1ccc(-c2ccccc2)cc1)(C(=O)NO)S(C)(=O)=O — MIC90 (Pseudomonas aeruginosa; PAO1 M62R): 4 µg/mL (≈ 11.5 µM)
O=C(OCC[18F])C1C2CCC(CC1c1ccc(/C=C\I)cc1)N2 (stereo not drawn) — time to peak uptake (SERT; HRRT PET; awake rhesus monkey, thalamus): > 75 min
CC[C@H](C)[C@@H]1NC(=O)[C@H](CCC(N)=O)NC(=O)[C@H](CCCCN)NC(=O)[C@H](Cc2ccc(O)cc2)NC(=O)[C@H](CCCNC(=N)N)NC(=O)[C@H](CCCNC(=N)N)NC(=O)[C@@H]2CCCN2C(=O)[C@@H](NC(=O)[C@@H](N)Cc2ccccc2)CSSC[C@@H](C(=O)N[C@@H](CCCCN)C(=O)O)NC(=O)[C@H](CCCCN)NC(=O)[C@H]([C@@H](C)O)NC(=O)CNC(=O)[C@@H]2CCCN2C(=O)[C@H](CC(C)C)NC(=O)CNC(=O)[C@H]([C@@H](C)O)NC(=O)CNC1=O — MBC (Staphylococcus aureus; ATCC 8530; pH 7.4): 23 µM (≈ 49.5 µg/mL)
C[C@H](NC(=O)[C@H](Cc1c[nH]cn1)NC(=O)[C@H](CO)NC(=O)[C@@H](N)CC(=O)O)C(=O)N[C@@H](CCCCN)C(=O)N[C@@H](CCCNC(=N)N)C(=O)N[C@@H](Cc1c[nH]cn1)C(=O)N[C@@H](Cc1c[nH]cn1)C(=O)NCC(=O)N[C@@H](Cc1ccc(O)cc1)C(=O)N[C@@H](CCCCN)C(=O)N[C@@H](CCCNC(=N)N)C(=O)N[C@@H](CCCCN)C(=O)N[C@@H](Cc1ccccc1)C(=O)N[C@@H](Cc1c[nH]cn1)C(=O)N[C@@H](CCC(=O)O)C(=O)N[C@@H](CCCCN)C(=O)N[C@@H](Cc1c[nH]cn1)C(=O)N[C@@H](Cc1c[nH]cn1)C(=O)N[C@@H](CO)C(=O)N[C@@H](Cc1c[nH]cn1)C(=O)N[C@@H](CCCNC(=N)N)C(=O)NCC(=O)N[C@@H](Cc1ccc(O)cc1)C(=O)O — LD50 (Candida albicans): 2 to 10 µM
COc1ccccc1-c1nnc(-c2ccc(C(=O)N/N=C/c3ccc(O)c(O)c3)cc2)o1 — IC50 (Leishmania): 950 ± 10 nM
CCN(CC)CC#CCNc1ccnc2cc(Cl)ccc12 — survival increase (Plasmodium berghei; mouse, infected; 640 mg/kg, single dose): > 9 days
O=C(NCCNCCO)c1cn(Cc2ccccc2)c2cc(Cl)c(OCc3ccc(C(F)(F)F)cc3)cc2c1=O — MIC (Acinetobacter baumannii; growth; ATCC 19606): 32 µg/mL
O=c1ccn([C@@H]2O[C@H](COC(c3ccccc3)(c3ccccc3)c3ccccc3)[C@@H](OC(c3ccccc3)(c3ccccc3)c3ccccc3)[C@H]2O)c(=O)[nH]1 — IC50 (dengue virus; viral replication): 1750 nM
CC[C@H](C)[C@H](NC(=O)[C@H](CCCNC(=N)N)NC(=O)[C@H](CCC(N)=O)NC(=O)[C@@H](NC(=O)[C@@H](NC(=O)[C@H](CCCNC(=N)N)NC(=O)[C@H](CCCCN)NC(=O)[C@@H](N)Cc1ccccc1)[C@@H](C)CC)C(C)C)C(=O)N[C@@H](CCCCN)C(=O)N[C@@H](CC(=O)O)C(=O)N[C@@H](Cc1ccccc1)C(=O)N[C@@H](CC(C)C)C(=O)N[C@@H](CCCNC(=N)N)C(=O)O — MIC (Escherichia coli): 40 µM
CN[C@H](CC(C)C)C(=O)N[C@H]1C(=O)N[C@@H](CC(N)=O)C(=O)N[C@H]2C(=O)N[C@H]3C(=O)N[C@H](C(=O)N[C@H](C(=O)O)c4cc(O)cc(O)c4-c4cc3ccc4O)[C@H](O)c3ccc(c(Cl)c3)Oc3cc2cc(c3O[C@@H]2O[C@H](CO)[C@@H](O)[C@H](O)[C@H]2O[C@H]2C[C@](C)(NCc3ccc(-c4ccc(Cl)cc4)cc3)[C@H](O)[C@H](C)O2)Oc2ccc(cc2Cl)[C@H]1O — clearance (mouse; intravenous, 75 mg/kg, maximum tolerated dose): 2.17 mL/min/kg
CC1=C(C)C(=O)OC(C(C)(O)C2(O)CCC3(O)C4CC5OC56CC=CC(=O)C6(C)C4CCC32C)C1 (stereo not drawn) — IC50 (A549; cell growth): 6580 nM
O=C(O)[C@@H]1Cc2c([nH]c3ccccc23)[C@@H](c2ccc(F)cc2F)N1 — IC50 (Plasmodium falciparum; parasite growth; Dd2): 780 ± 175 nM
NC(=O)c1cn(Cc2ccc(F)cc2)cc(O)c1=O — inhibition (human cytomegalovirus; viral replication; AD169 GFP reporter; 10 µM): 50%
Cc1cccc(C)c1NC1=C(O)C(=O)c2ccccc2C1=O — mean survival time (Plasmodium berghei; infected mice; dose not given): 26.7 ± 2.5 days
CN1CCC2(CC1)c1ccccc1N(Cc1ccc(C(=O)NO)cc1)C2c1ccc(Cl)cc1 (stereo not drawn) — LD50 (Schistosoma mansoni; schistosomula): 13.3 µM
Cc1onc(-c2c(Cl)cccc2Cl)c1C(=O)Nc1ccc(F)cc1C(=O)NN=Cc1cccs1 — antiviral activity (Cucumber mosaic virus; concentration not given; reference: ningnanmycin): increased
CC(C)C[C@H](NC(=O)[C@H](CCCNC(=N)N)NC(=O)[C@@H]1CCCN1C(=O)[C@H](CCCCN)NC(=O)[C@H](Cc1ccccc1)NC(=O)CCC(=O)Nc1ccc2c(c1)Cc1cc(Br)ccc1-2)C(N)=O — relative potency (Helicoverpa zea; pupal diapause termination; pupae; reference: native diapause hormone): ~50 fold
COc1ccc(/C=C(\C)[N+](=O)[O-])cc1 — IC50 (Leishmania donovani; parasite growth; promastigote): 40.5 ± 1.47 nM
COc1cc2c(cc1-c1c(C)noc1C)ncc1[nH]c(=O)n([C@H](C)c3ccccn3)c12 — survival (Trypanosoma brucei; mouse; dose not given, pretreated trypanosomes injected): 80%
CC(=O)NCC1CN(c2ccc(-c3ccc(C=CC(=O)N4CCNCC4)cc3)c(F)c2)C(=O)O1 (stereo not drawn) — MIC (Staphylococcus aureus): 0.5 µg/mL
CO[C@@H]1CN(c2ccc(C#CC3(O)CN4CCC3CC4)c(Cc3ccccc3)n2)C[C@H]1O (stereo partly drawn) — IC50 (Leishmania infantum; amastigote growth): 17300 nM
CC1=C(C)C(=O)OC(C(C)(O)C2(O)CCC3(O)C4CC5OC56C(O)C=CC(=O)C6(C)C4CCC32C)C1 (stereo not drawn) — IC50 (A549; cell growth): 2950 nM
Cc1c(-c2ccc(Cc3ccc(OC(F)(F)F)cc3)cc2)[nH]c2cccc(F)c2c1=O — EC50 fold change (Plasmodium falciparum; cyt b A122T; reference: wild type): 3 to 4 fold
CCCCc1cc2c(=O)c(C(=O)OC)c[nH]c2cc1OCCOc1ccccc1 — ED50 (Plasmodium; blood schizonticidal activity; rodent malaria model): 0.05 mg/kg

Excerpt of the above:
Cc1cccc(C)c1NC1=C(O)C(=O)c2ccccc2C1=O — mean survival time (Plasmodium berghei; infected mice; dose not given): 26.7 ± 2.5 days
C[C@@](CCc1ccc(-c2ccccc2)cc1)(C(=O)NO)S(C)(=O)=O — MIC90 (Pseudomonas aeruginosa; PAO1 M62R): 4 µg/mL (≈ 11.5 µM)
Cc1c(-c2ccc(Cc3ccc(OC(F)(F)F)cc3)cc2)[nH]c2cccc(F)c2c1=O — EC50 fold change (Plasmodium falciparum; cyt b A122T; reference: wild type): 3 to 4 fold
